Experimental data from different studies.
Every numbered part comes from another study and shows a few of its results, in no order.

Sample 1 — technique: protein-binding microarray; molecule type: double-stranded DNA, one strand shown; medium: in vitro; tested at: 940 nM top; notes: 60-bp whole probe; together with: salmon DNA 0.4 mg/ml; relative to: random background probes; direction: higher = stronger binding
Target: Interferon regulatory factor 5, full length, phosphomimetic (IRF5, Homo sapiens, UniProt Q13568-2, residues 1-514, S451D/S453D/S456D/S462D)
All sequences stand within: GCCTAGCAC … GTGCTAGGTCTTGATTCGCTTGACGCTGCTG
| Sequence | fitted relative affinity |
| --- | --- |
| TCTCTTTCCTTCTTGATGCA | 3.46 z-score |
| GACGGACTGCTACTGTTGAC | -0.509 z-score |
| TCATTTCTATCTCTGTTACT | 1.96 z-score |
| TCACTTTTCATGCTCTTACT | 1.65 z-score |
| GTTAGTGGGATGGCTGTGGT | -0.398 z-score |
| GACGGACTGGGTATCGCGAC | -0.317 z-score |
| GAAGATTTCAGACTGGAGAC | -0.566 z-score |
| TTAGGACTGGGATTGGGTTA | -0.148 z-score |

Sample 2 — observed: enzyme activity; action: inhibitor; tested at: 0.5 µM; relative to: control
Target: Dual specificity tyrosine-phosphorylation-regulated kinase 2 (DYRK2, Homo sapiens, UniProt Q92630)
Target sequence (Q92630 1-601): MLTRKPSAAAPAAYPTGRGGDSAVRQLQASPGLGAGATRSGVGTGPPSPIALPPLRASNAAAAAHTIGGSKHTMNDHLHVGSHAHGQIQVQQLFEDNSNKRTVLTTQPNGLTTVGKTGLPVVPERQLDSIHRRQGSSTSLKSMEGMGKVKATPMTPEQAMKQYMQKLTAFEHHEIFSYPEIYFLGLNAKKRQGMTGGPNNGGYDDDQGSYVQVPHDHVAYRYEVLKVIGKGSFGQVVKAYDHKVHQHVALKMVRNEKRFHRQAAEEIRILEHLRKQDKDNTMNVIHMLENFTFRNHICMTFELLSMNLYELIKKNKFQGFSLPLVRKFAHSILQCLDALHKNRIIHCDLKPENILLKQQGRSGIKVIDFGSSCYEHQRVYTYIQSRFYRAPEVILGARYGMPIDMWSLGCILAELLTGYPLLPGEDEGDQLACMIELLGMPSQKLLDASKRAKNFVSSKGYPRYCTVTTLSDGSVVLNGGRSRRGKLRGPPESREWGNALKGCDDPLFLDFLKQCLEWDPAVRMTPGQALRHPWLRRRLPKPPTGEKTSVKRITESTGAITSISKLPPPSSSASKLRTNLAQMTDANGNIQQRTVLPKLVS
| Structure (SMILES) | remaining activity [%] |
| --- | --- |
| COc1cc2nccc(Oc3ccc(NC(=S)NC(=O)c4ccccc4C)cc3)c2cc1OC | 87.5 |
| COc1ccc(OC)c2c(=S)c3ccccc3[nH]c12 | 96.8 |
| C#Cc1cccc(Nc2ncnc3cc(OCCOC)c(OCCOC)cc23)c1 | 85 |
| O=C(O)c1ccc2c3c1cccc3c(=O)n1c3ccccc3nc21 | 50.7 |
| Nc1ccc2ncnc(NCCc3ccc(Oc4ccccc4)cc3)c2c1 | 89.6 |
| O=C(CCCc1ccc(-c2ccccc2F)cc1)Nc1ccc(O)cc1 | 91.8 |
| O=C(Nc1cccc(Nc2cc(Nc3cccc(C(F)(F)F)c3)ncn2)c1)C1CC1 | 99.8 |
| COc1ccc(C(=O)Nc2sc3c(c2C(N)=O)CCCC3)cc1OC | 92 |
| CC(C)[C@H](CO)Nc1nc(Nc2cc(N)cc(Cl)c2)c2ncn(C(C)C)c2n1 | 93.2 |
| Cc1cccc(-c2[nH]c(C(C)(C)C)nc2-c2ccc3c(c2)OCO3)n1 | 108 |
| COc1cc2ncnc(Nc3ccc(Oc4ccccc4)cc3)c2cc1OC | 104 |
| CN(C)c1ccc(C=C2C(=O)Nc3ccccc32)cc1 | 100 |
| Cc1nc(-c2ccccc2)c(-c2ccncc2)o1 | 98.6 |
| CNC(=O)c1cc(Oc2ccc(NC(=O)Nc3ccc(Cl)c(C(F)(F)F)c3)cc2)ccn1 | 98.9 |
| Oc1ccc(-c2nc(-c3ccncc3)c(-c3ccc(F)cc3)[nH]2)cc1 | 99.3 |

Sample 3 — cell line: sample E normal colon organoid; technique: CellTiter-Glo; tested at: 1 µM; time: 4 days; relative to: DMSO
| SMILES | viability [%] |
| --- | --- |
| NS(=O)(=O)c1cc(NC(=O)Cc2ccccc2)ccc1Oc1cccc(Cl)c1 | 112 |
| Cc1c(NC(=O)c2cc(C(N)=O)nc3cc(F)ccc23)c(C(F)(F)F)nn1Cc1ccc(C#N)cc1 | 31.8 |
| C[C@H](NC(=O)c1cnc2n1[C@](C)(Cc1ccc(C#N)cc1)C(=O)N2c1cc(Cl)c(F)c(Cl)c1)C(=O)NC1(c2ccccn2)CC1 | 108 |
| CN(C)C(=O)Cn1cc(-c2nc(C3(c4ccc(-c5cnc(N)nc5)cc4)CC3)no2)cn1 | 87.7 |
| CN(C)c1ncnc(-c2ccc3nc(Nc4cc(CN5CCN(C(=O)CC(F)(F)F)CC5)ccn4)[nH]c3c2)c1Cl | 93.8 |
| C[C@@]1(Cc2ccc(C#N)cc2)C(=O)N(c2cc(Cl)cc(Cl)c2)c2ncc(C(=O)NC3(c4nc(C5CCC5)no4)CC3)n21 | 120 |

Sample 4 — technique: RNA Bind-n-Seq; molecule type: RNA; medium: in vitro; tested at: 1 µM; notes: whole 134-nt RNA, ends assumed; together with: 150 mM KCl; relative to: input library; direction: higher = stronger binding
Target: Ras GTPase-activating protein-binding protein 1, RRM domain (G3BP1, Homo sapiens, UniProt Q13283)
Sequence of UniProt Q13283 (whole entry, looked up): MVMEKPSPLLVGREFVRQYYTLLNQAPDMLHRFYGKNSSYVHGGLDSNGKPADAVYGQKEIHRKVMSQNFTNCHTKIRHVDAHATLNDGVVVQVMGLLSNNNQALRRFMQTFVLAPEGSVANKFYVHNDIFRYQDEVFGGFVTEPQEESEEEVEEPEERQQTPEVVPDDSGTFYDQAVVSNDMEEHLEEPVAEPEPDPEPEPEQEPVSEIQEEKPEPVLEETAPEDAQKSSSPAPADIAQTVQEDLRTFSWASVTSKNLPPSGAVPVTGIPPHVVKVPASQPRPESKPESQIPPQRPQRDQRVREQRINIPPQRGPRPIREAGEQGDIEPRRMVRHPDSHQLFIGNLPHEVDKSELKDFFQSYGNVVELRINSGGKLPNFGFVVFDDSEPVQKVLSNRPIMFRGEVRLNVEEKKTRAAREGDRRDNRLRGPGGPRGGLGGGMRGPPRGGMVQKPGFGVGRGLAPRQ
All sequences stand within: GGGAGUUCUACAGUCCGACGAUC … UGGAAUUCUCGGGUGUCAAGG
| Sequence | log2 enrichment |
| --- | --- |
| UAACUUUAGAGGAGGAUCUGAUGGAUAUGGCAGUGGACGUGGGUUUGGGGAUGGCUAUAAUGGGUAUGGAGGAGGACCUGGAGGUGGCAA | -0.552 |
| CUCAAGUCCUGUGCUACACAUCGUAUGUACCGAAUCGGUGGUGGAAAAAAAGGAAAGUAUUAUGUUACGCCGUUCGGAUCUGCACUUCCA | -0.204 |
| GCAGGAAGUAAAAACAAAUGGAAAUGCUUCGGAUAGUGGCAGGGGUGGGGGUUGCUAAGGAAAGGGUGGGAUGGGAAAAGGUAAAGAGUU | 1.55 |
| UCCAGCCACUCACCGGCGAUCCAGGUCCAGAACCCCCCUGAUAAGCCGACGUAGGUCCAGAUCUCGAACUUCACCAGUCAGCCGGAGACG | -0.26 |
| GUCCUGUGCUACACAUCGUAUGUACCGAAUCGGGGUGGGGUUUGGGGUUUUUUUGGGGAAAGUAUUAUGUUACGCCGUUCGGAUCUGCAC | 1.07 |
| AAGUCCUGUGCUACACAUCGUAUGUACCGAAUCGGUUUUUUUGGUUUUUUUGGUGGAAAGUAUUAUGUUACGCCGUUCGGAUCUGCACUU | -0.466 |
| GAACUUUAGAGGAGGAUCUGAUGGAUAUGGCAGUGGACGUGGAUUUGGGGAUGGCUAUAAUGGGUAUGGAGGAGGACCUGGAGGUGGCAA | -0.765 |
| GCAGGAAGUAAAAACAAAUGGAAAUGCUUCGAAAAGUGGCAGGGGUGGGGGUUGCUAAGGAAAGGGUGGGAUGGGAGUGGGUAAAGAGUU | 1.52 |

A few entries again (sample 4):
| Sequence | log2 enrichment |
| --- | --- |
| UCCAGCCACUCACCGGCGAUCCAGGUCCAGAACCCCCCUGAUAAGCCGACGUAGGUCCAGAUCUCGAACUUCACCAGUCAGCCGGAGACG | -0.26 |
| AAGUCCUGUGCUACACAUCGUAUGUACCGAAUCGGUUUUUUUGGUUUUUUUGGUGGAAAGUAUUAUGUUACGCCGUUCGGAUCUGCACUU | -0.466 |
